Results of several laboratories.
Each line is one published result; not all experiments were run side by side. “And” joins repeats or separate records; there may be more than shown.
UniProt Q16774, sequence (whole entry, unmodified, looked up): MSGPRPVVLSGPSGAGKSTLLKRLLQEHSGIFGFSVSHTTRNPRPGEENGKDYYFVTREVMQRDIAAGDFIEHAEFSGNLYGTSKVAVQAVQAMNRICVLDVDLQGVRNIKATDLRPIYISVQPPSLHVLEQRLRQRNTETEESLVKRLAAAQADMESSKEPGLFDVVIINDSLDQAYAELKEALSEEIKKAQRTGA
UniProt P19793, sequence (whole entry, looked up): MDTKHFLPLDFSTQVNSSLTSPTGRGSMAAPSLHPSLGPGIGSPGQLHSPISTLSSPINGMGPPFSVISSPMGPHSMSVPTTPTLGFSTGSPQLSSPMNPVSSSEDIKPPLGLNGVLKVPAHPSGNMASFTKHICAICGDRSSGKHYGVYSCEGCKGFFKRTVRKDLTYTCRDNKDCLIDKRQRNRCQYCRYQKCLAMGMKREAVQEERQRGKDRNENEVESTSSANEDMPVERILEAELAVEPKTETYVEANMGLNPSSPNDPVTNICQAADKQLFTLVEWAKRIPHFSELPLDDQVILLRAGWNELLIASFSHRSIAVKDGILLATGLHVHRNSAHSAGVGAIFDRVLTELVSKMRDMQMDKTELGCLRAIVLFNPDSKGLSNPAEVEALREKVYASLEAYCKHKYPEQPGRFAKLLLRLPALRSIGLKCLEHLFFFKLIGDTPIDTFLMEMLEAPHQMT
UniProt P11388, sequence (whole entry, looked up): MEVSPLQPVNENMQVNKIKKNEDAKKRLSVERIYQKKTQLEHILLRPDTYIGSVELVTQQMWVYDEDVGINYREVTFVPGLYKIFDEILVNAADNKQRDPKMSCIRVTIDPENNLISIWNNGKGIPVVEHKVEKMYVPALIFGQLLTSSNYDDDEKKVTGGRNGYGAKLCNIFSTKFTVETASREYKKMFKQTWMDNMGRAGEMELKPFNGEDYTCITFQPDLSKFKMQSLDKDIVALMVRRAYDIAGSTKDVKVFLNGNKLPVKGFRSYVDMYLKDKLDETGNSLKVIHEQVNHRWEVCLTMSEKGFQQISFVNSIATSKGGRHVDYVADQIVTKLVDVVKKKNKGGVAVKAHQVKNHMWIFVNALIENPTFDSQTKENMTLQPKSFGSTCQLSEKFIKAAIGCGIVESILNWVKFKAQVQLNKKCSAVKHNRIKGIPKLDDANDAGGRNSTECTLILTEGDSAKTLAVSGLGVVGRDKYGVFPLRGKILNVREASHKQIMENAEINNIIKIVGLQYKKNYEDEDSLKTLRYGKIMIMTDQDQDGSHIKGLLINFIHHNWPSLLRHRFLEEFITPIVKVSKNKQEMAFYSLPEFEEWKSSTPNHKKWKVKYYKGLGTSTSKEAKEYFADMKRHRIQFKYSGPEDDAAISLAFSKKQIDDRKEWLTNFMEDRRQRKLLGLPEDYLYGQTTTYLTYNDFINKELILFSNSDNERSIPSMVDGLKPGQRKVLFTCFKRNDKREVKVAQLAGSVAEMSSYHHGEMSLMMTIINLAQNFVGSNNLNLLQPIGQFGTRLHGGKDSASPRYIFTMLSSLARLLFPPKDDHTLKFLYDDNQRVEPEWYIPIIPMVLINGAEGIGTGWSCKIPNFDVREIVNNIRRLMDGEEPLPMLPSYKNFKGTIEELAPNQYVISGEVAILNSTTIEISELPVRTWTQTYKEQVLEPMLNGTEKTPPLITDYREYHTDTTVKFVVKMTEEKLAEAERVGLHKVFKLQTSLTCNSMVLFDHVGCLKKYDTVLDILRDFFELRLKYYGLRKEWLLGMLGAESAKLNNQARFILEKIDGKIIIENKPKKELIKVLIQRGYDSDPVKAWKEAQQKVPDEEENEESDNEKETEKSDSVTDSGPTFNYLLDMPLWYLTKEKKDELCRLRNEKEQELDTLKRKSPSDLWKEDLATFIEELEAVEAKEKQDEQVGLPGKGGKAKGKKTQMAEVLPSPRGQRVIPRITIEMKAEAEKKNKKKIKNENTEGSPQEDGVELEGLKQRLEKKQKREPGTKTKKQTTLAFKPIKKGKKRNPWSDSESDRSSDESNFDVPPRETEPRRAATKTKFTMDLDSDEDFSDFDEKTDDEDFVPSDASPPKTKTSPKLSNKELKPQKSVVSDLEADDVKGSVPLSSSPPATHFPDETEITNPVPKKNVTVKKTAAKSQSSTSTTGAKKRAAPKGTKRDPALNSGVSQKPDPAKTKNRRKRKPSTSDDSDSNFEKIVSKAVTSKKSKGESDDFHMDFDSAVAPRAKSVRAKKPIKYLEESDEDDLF
UniProt P51575, sequence (whole entry, unmodified, looked up): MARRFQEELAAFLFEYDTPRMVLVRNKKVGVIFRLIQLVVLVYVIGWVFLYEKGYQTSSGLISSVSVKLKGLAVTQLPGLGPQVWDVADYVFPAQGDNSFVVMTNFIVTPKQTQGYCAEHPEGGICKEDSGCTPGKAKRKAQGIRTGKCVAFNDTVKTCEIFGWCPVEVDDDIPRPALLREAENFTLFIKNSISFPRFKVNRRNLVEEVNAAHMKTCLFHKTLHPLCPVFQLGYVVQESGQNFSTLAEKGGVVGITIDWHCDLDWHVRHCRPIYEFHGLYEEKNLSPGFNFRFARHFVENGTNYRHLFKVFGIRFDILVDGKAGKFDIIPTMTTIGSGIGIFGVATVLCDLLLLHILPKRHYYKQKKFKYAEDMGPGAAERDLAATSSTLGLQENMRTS
UniProt P25021, sequence (whole entry, looked up): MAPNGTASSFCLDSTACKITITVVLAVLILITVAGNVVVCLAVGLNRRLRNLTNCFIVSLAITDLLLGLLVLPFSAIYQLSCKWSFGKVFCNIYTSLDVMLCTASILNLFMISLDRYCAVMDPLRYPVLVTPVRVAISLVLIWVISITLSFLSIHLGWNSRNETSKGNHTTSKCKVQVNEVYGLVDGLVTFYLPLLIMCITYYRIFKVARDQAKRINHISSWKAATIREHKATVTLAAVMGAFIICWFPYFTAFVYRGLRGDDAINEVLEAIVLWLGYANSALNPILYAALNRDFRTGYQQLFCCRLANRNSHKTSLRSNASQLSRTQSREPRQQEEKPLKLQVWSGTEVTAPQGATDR
UniProt Q99572, sequence (whole entry, unmodified, looked up): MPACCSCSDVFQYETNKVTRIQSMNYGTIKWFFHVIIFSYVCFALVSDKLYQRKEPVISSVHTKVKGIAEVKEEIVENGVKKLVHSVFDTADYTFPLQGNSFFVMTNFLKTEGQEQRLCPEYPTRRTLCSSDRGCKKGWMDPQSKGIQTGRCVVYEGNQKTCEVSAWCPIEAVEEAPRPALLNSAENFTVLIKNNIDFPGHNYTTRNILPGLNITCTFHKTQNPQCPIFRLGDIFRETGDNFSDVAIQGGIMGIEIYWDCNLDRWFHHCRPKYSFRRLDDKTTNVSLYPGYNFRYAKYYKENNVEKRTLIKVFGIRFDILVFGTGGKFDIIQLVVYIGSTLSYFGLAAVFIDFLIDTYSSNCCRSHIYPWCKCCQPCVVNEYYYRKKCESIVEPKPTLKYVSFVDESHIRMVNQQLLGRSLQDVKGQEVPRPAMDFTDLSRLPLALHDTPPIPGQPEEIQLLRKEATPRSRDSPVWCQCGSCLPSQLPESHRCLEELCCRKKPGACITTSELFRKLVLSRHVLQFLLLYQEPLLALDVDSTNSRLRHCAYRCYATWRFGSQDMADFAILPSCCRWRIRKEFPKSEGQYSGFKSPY
UniProt O00519, sequence (whole entry, looked up): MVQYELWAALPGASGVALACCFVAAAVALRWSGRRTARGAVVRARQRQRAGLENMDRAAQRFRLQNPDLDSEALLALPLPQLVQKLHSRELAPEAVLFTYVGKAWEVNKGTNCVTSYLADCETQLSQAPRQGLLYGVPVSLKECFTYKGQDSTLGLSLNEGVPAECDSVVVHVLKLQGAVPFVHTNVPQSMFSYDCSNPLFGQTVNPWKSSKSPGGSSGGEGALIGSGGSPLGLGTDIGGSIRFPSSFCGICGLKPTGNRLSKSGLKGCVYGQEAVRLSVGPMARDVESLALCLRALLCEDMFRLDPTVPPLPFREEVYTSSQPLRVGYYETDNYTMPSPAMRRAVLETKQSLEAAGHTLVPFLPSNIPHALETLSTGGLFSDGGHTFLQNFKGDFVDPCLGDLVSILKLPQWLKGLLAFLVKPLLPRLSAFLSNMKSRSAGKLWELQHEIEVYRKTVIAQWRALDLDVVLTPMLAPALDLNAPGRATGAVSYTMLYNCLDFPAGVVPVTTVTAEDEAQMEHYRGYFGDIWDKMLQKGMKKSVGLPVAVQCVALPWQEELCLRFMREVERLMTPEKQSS
UniProt P02763, sequence (whole entry, looked up): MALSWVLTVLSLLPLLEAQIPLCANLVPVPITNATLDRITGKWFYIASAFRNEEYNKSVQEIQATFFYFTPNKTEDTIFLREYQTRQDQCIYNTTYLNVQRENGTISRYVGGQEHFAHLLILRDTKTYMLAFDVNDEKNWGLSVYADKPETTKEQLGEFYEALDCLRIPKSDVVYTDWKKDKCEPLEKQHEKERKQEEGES
UniProt P52497, sequence (whole entry, looked up): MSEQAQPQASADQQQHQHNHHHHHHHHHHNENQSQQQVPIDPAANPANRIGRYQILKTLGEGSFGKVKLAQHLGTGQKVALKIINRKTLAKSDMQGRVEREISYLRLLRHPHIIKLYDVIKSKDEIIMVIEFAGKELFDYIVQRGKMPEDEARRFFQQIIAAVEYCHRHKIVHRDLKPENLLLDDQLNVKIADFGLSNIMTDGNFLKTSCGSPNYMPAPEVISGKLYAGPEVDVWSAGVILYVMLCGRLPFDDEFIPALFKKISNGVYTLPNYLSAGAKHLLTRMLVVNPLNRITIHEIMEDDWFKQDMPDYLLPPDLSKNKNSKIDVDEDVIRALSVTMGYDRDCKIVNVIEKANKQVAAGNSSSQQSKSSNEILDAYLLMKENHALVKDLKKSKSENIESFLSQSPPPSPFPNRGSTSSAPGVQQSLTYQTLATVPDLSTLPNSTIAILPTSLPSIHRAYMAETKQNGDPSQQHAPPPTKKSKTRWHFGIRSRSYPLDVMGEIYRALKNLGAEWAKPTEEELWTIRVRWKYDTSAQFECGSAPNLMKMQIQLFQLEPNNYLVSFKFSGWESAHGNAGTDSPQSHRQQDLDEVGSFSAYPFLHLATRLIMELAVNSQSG

SMILES | target | assay | test system | conditions | scale | quantity | value
N[C@@H](Cc1ccccc1)C(=O)Nc1ccc2ccccc2c1 | Puromycin-sensitive aminopeptidase (Rattus norvegicus, UniProt F1M9V7) | substrate |  | MW 100 kDa |  | kcat | 43.3 s⁻¹
O=C(Nc1cnccc1Cl)N1CCN(Cc2ccc3c(c2)OC(F)(F)O3)CC1 | Fatty-acid amide hydrolase 1 (FAAH, Homo sapiens, UniProt O00519) | binding, ex vivo radioligand binding | human leucocytes | 200 µM, 15 min preincubation | reference: vehicle DMSO | reduction of probe labelling | 24%
Cc1ccc(C(=O)Nc2ccc3ccccc3c2)o1 | Sodium channel protein type 3 subunit alpha (Scn3a, Rattus norvegicus, UniProt P08104) | ion current, whole-cell patch-clamp |  | 10 µM, rNaV1.3 |  | inhibition | 5.58%
CC[C@@H]1[C@H](F)C(=O)N[C@@H]1COc1nccc2cc(C(N)=O)c(OC)cc12 | Mitogen-activated protein kinase 7 (MAPK7, Homo sapiens, UniProt Q13164) | ATP-site probe binding, ActivX profiling, item: Erk5 | THP-1 cell lysate | 0.04 mM, Lys2 site |  | inhibition | 1.9%
Cc1n[nH]c2ccc(-c3cc(OC[C@@H](N)Cc4ccccc4)cnc3-c3ccoc3)cc12 | Carbon catabolite-derepressing protein kinase (SNF1, Candida albicans, UniProt P52497) | kinase binding, competitor, MIB/MS competition, item: SNF1 | Candida albicans cell lysate | 10 µM | reference: DMSO | log2 fold change | -1.78
Nc1ncnc2c1ncn2[C@@H]1O[C@H](COP(=O)(O)CP(=O)(O)OP(=O)(O)O)[C@@H](O)[C@H]1O | P2X purinoceptor 1 (P2RX1, Homo sapiens, UniProt P51575, R292A) | saturation binding | HEK293 | 130 nM |  | specific binding | 354 CCPM and 536 CCPM
CCS(=O)(=O)N1CC(CC#N)(n2cc(-c3ncnc4[nH]ccc34)cn2)C1 | Alpha-1-acid glycoprotein 1 (ORM1, Homo sapiens, UniProt P02763) | circular dichroism |  | 298 K |  | antiparallel β-sheet content | 43.9%
O=C(c1ccc(I)cc1)N1CCC(n2cncc2-c2ccc(OS(=O)(=O)c3cccc4cnccc34)cc2)CC1 | P2X purinoceptor 7 (P2RX7, Homo sapiens, UniProt Q99572) | ATP-gated current | HEK293 stably expressing P2RX7 | 300 nM |  | inhibition duration after washout | ≥ 25 min
C1CCCC1.C1CCCC1.[Cl][W][Cl] | Albumin (ALB, Homo sapiens, UniProt P02768) | fluorescence quenching |  | 310 K |  | Stern-Volmer quenching constant | 4770 L/mol
CC/C=C\CCO | uncharacterized protein (Spodoptera exigua, UniProt F1CEY0) | binding, 1-NPN competitive displacement |  | protein 2.0 µM, with: 1-NPN 20 µM | reference: 1-NPN without compound, lower = stronger binding | relative fluorescence | 81.2%
COC(=O)c1cn(C)c2ccc(-c3cccnc3)cc12 | Retinoic acid receptor RXR-alpha (RXRA, Homo sapiens, UniProt P19793) | reporter gene, Gal4 hybrid reporter |  | 10 µM | reference: vehicle | activation | 0.95 fold
CCCC(CCC)c1nc2c(Nc3ccc(C#CCCCCCCCCN)cc3)nc3ccccc3c2[nH]1 | Histamine H2 receptor (HRH2, Homo sapiens, UniProt P25021) | PDSP screening |  |  |  | off-target affinity | inactive
O=c1nc(SCc2cc(F)cc(C(F)(F)F)c2)nc(SCc2ccc3nc(Cl)ccc3c2)[nH]1 | DNA topoisomerase 2-alpha (TOP2A, Homo sapiens, UniProt P11388) | ATPase activity |  | 31.25 µM, with: ATP 0.025 mM |  | ATP hydrolysis rate | 0.259 µM/min and 0.207 µM/min
Nc1ncnc2c1ncn2[C@@H]1O[C@H](CO[P@](=O)(O)O[P@](=O)(O)O[P@@](=O)(O)S)[C@@H](O)[C@H]1O | GUK1 (Homo sapiens, UniProt Q16774) | ITC |  | concentration not given, with: ADP |  | ΔG of binding | -5.96 kcal/mol and -5.97 kcal/mol and -6 kcal/mol
N[C@H](CNC(=O)c1cc(Br)c(-c2ccccc2F)s1)C(=O)O | Glutamate receptor ionotropic, NMDA 1, with GluN2C (Grin1, Rattus norvegicus, UniProt P35439, S688A) | receptor activation | rat | with: glutamate 300 µM |  | log EC50 | -2.4 µM

Excerpt of the above:
SMILES | target | assay | test system | conditions | scale | quantity | value
CC/C=C\CCO | uncharacterized protein (Spodoptera exigua, UniProt F1CEY0) | binding, 1-NPN competitive displacement |  | protein 2.0 µM, with: 1-NPN 20 µM | reference: 1-NPN without compound, lower = stronger binding | relative fluorescence | 81.2%
COC(=O)c1cn(C)c2ccc(-c3cccnc3)cc12 | Retinoic acid receptor RXR-alpha (RXRA, Homo sapiens, UniProt P19793) | reporter gene, Gal4 hybrid reporter |  | 10 µM | reference: vehicle | activation | 0.95 fold
